Experimental data from different studies.
A part holds a random share of what one study measured.
Sequence of UniProt P29597 (whole entry, looked up): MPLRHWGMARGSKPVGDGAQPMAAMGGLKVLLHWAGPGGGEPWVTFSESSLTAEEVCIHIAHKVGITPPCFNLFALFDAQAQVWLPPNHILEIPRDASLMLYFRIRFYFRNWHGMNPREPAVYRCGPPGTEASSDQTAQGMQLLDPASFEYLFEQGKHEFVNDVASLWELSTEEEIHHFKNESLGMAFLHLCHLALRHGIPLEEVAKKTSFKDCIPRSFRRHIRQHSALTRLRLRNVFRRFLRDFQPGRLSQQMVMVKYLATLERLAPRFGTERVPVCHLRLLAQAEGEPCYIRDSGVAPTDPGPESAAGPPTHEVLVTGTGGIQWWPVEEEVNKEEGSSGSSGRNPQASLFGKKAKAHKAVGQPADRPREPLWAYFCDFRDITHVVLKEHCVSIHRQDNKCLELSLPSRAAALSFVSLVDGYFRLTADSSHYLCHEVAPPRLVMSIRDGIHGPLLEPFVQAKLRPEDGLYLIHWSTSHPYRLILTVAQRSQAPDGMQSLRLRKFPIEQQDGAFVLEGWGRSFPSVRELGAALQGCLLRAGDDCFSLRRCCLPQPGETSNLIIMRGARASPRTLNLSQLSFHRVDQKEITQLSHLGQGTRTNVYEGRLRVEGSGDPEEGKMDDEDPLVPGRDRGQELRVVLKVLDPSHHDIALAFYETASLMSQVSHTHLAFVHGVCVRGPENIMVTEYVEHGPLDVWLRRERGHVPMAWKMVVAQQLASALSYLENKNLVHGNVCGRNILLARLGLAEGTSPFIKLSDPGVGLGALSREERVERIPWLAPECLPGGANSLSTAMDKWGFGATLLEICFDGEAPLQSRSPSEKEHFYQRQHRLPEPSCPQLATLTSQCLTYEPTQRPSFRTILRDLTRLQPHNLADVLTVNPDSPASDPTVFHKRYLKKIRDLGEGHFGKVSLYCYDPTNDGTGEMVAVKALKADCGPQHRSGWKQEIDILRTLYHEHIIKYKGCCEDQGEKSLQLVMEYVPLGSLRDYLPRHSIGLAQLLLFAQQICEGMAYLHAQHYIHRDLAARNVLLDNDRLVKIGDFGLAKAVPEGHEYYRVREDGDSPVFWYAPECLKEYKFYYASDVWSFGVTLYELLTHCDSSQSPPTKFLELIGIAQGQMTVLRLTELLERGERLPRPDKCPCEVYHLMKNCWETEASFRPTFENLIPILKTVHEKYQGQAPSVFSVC
Sequence of UniProt Q8IY84 (whole entry, looked up): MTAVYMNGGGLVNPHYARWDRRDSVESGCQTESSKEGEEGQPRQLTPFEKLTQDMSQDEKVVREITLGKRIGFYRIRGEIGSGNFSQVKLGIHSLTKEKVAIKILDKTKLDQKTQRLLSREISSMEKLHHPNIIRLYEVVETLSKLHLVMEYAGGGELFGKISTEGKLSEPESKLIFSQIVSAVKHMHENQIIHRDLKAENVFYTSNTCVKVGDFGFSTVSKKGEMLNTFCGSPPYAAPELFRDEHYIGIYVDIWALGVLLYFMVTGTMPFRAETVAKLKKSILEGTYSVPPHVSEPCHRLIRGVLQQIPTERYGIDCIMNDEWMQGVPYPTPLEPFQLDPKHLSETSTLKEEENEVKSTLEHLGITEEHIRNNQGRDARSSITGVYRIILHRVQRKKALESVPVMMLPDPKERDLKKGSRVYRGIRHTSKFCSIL
Sequence of UniProt P08922 (whole entry, looked up): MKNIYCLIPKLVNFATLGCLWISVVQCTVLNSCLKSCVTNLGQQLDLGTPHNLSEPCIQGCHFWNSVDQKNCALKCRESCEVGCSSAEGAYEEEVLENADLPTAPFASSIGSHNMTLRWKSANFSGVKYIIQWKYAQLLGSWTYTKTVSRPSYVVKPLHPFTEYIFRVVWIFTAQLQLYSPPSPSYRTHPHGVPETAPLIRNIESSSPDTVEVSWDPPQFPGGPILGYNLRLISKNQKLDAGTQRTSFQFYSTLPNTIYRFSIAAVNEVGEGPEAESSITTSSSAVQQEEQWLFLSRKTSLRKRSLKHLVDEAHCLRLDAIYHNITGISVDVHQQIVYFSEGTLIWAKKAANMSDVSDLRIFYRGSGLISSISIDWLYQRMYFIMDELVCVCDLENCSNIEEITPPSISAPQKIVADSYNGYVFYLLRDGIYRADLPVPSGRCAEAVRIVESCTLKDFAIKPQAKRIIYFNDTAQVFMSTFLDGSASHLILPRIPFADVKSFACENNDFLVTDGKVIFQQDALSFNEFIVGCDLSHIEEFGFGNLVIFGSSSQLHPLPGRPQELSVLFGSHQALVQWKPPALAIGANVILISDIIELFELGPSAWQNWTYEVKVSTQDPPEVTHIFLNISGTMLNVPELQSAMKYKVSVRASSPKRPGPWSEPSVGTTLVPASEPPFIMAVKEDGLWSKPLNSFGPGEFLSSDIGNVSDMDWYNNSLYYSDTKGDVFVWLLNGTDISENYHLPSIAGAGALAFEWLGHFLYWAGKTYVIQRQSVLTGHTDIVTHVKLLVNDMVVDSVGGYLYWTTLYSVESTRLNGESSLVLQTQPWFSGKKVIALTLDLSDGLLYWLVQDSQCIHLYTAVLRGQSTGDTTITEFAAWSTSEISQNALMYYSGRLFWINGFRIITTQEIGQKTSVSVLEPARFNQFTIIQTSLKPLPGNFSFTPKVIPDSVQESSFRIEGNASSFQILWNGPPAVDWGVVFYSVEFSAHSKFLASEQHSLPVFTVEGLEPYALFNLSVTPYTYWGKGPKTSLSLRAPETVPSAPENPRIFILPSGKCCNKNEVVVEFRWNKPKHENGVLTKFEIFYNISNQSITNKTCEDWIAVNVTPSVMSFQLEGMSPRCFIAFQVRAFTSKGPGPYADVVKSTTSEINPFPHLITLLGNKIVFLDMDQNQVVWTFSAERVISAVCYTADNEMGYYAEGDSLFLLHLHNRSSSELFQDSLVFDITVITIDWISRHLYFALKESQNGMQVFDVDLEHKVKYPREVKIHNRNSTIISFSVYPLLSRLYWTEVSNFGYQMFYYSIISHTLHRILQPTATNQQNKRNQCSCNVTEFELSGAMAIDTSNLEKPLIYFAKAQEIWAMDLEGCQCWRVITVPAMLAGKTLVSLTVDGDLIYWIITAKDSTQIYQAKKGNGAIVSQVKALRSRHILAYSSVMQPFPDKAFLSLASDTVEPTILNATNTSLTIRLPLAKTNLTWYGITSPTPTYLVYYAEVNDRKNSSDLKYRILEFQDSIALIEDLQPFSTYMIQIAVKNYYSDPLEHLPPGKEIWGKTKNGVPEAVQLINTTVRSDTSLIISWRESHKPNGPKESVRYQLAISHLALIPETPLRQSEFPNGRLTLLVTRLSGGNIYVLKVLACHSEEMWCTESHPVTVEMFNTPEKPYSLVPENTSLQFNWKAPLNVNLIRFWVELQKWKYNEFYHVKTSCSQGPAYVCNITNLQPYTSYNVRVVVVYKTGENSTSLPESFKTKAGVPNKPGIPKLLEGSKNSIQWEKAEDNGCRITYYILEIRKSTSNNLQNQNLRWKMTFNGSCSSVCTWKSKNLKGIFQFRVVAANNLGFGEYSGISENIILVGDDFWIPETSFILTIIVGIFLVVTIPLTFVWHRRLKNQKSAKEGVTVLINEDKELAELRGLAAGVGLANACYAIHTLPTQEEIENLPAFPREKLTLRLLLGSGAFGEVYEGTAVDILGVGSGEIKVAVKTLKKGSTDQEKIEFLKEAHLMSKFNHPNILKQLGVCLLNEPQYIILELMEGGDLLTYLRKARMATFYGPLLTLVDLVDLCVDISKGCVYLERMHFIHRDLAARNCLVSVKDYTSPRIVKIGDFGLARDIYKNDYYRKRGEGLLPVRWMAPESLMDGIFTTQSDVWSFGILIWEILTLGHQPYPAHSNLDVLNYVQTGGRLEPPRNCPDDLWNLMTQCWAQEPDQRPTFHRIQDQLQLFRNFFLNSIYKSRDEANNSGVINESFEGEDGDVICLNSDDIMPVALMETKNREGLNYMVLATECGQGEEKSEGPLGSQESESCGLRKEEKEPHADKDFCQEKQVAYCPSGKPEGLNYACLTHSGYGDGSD

Set 1 — organism: Plasmodium berghei; mode: inhibitor; cell line: Huh-7; strain: GFP-expressing, liver stage; concentration: 10 µM; time: 24 h; reference: untreated control
| Compound | infection rate [%] |
| --- | --- |
| COc1cc(C(=O)NCc2ccc(OCCN(C)C)cc2)cc(OC)c1OC | 92.5 |
| Fc1ccc([C@@H]2CCNC[C@H]2COc2ccc3c(c2)OCO3)cc1 | 94.7 |
| CCn1cc(C(=O)O)c(=O)c2cc(F)c(N3CCNCC3)cc21 | 115 |
| CN(C)[C@@H]1C(O)=C(C(N)=O)C(=O)[C@@]2(O)C(O)=C3C(=O)c4c(O)cccc4[C@@](C)(O)[C@H]3C[C@@H]12 | 65 |
| Cc1nc2sccn2c(=O)c1CCN1CCC(=C(c2ccc(F)cc2)c2ccc(F)cc2)CC1 | 69.7 |
| CC(=O)CCCCn1c(=O)c2c(ncn2C)n(C)c1=O | 88.8 |
| CCN1CCCC(OC(=O)C(c2ccccc2)c2ccccc2)C1 (stereo not shown) | 71.2 |
| OCc1ccccc1O[C@@H]1O[C@H](CO)[C@@H](O)[C@H](O)[C@H]1O | 104 |
| N[C@@H](CC(=O)N1CCn2c(nnc2C(F)(F)F)C1)Cc1cc(F)c(F)cc1F | 79.1 |
| CCCCNC(=O)NS(=O)(=O)c1ccc(C)cc1 | 108 |
| COc1ccc(CN(CCN(C)C)c2ncccn2)cc1 | 102 |
| CCCCCC(C)N (stereo not shown) | 102 |
| O=C1CN(/N=C/c2ccc([N+](=O)[O-])o2)C(=O)N1 | 66.6 |
| CCCCC1C(=O)N(c2ccccc2)N(c2ccccc2)C1=O | 94.1 |
| C[C@]12C=CC(=O)C=C1CC[C@H]1[C@@H]3C[C@@H](O)[C@](O)(C(=O)CO)[C@@]3(C)C[C@H](O)[C@@]12F | 116 |
| Nc1ccc(S(=O)(=O)Nc2ccc(Cl)nn2)cc1 | 87.1 |
| CC[C@H](C)C(=O)O[C@H]1C[C@H](O)C=C2C=C[C@H](C)[C@H](CC[C@@H](O)C[C@@H](O)CC(=O)O)[C@H]21 | 107 |

Set 2 — effect on: enzyme activity; mode: inhibitor; concentration: 0.5 µM; reference: control
Target: Serine/threonine-protein kinase TAO1 (TAOK1, Homo sapiens, UniProt Q7L7X3)
Sequence of UniProt Q7L7X3 (whole entry, looked up): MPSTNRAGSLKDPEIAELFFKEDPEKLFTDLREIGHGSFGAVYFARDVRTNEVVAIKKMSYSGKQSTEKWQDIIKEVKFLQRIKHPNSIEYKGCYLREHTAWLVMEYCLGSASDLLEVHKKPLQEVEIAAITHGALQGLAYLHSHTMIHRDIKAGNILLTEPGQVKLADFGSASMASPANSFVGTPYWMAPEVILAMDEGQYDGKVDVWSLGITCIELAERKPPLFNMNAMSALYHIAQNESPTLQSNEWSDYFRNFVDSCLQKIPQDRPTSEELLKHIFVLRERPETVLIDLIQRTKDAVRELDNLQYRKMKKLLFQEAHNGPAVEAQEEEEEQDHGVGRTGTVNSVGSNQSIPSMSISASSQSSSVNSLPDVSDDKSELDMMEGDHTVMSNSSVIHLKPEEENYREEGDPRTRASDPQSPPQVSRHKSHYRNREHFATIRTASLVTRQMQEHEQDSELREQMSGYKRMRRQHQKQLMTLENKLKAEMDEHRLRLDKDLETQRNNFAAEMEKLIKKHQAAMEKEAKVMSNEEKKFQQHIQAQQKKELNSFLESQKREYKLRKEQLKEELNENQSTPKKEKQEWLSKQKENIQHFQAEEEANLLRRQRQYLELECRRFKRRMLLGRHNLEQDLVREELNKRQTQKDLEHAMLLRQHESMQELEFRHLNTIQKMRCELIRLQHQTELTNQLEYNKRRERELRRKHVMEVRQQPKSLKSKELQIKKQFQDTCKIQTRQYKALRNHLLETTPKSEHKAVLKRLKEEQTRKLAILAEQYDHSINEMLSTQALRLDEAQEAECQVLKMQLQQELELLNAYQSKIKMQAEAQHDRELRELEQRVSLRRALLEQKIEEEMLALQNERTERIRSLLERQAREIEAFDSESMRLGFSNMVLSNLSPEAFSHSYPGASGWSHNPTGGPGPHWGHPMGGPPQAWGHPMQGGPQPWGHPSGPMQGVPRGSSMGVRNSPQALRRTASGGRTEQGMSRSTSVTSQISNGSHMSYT
| Compound | remaining activity |
| --- | --- |
| COc1cc2c(N3CCN(C(=O)Nc4ccc(OC(C)C)cc4)CC3)ncnc2cc1OCCCN1CCCCC1 | 103% |
| CC(C)(C)c1nc2c3cc[nH]c(=O)c3c3cc(F)ccc3c2[nH]1 | 86.9% |
| CCN(CC)CCCCN1c2ccccc2Oc2ccc(Cl)cc21 | 97.9% |
| O=c1c(-c2ccc(F)cc2)c(-c2ccncc2)[nH]n1-c1ccc(Cl)cc1 | 102% |
| CC(C)n1cnc2c(Nc3cccc(Cl)c3)nc(NCCO)nc21 | 94.4% |
| COc1cc2c(Nc3ccc(Br)cc3F)ncnc2cc1OCC1CCN(C)CC1 | 103% |
| NC(=O)c1ccc(-c2nc(-c3ccc4c(c3)OCCO4)c(-c3ccccn3)[nH]2)cc1 | 95.4% |
| N#CC(c1ccnc(NCCc2cccnc2)n1)c1nc2ccccc2s1 (stereo not shown) | 98% |
| CC(C)N(CCC(=O)c1ccc2ccccc2c1)Cc1ccccc1 | 94.9% |
| CCCCc1c(-c2ccc(O)cc2)[nH]c2nccnc12 | 70.9% |
| FC(F)(F)c1ccc(/C=C/c2nc(COc3ccc(CCCCn4ccnn4)cc3)co2)cc1 | 102% |
| O=C1c2ccccc2-c2nc3nnnn3nc21 | 90.2% |
| c1cc(-c2cnn3cc(-c4ccc(OCCN5CCCCC5)cc4)cnc23)ccn1 | 84.8% |
| CNc1cc2c(Nc3cccc(Br)c3)ncnc2cn1 | 92.4% |
| O=C(c1ccccc1)c1ccc(N2CCOCC2)cc1O | 100% |
| O=Nc1c(-c2c(O)[nH]c3ccccc23)[nH]c2ccccc12 | 102% |
| N#C/C(=C(/N)SC1C=CC=CC1)c1cccc(C(O)c2ccncc2)c1 (stereo not shown) | 89.2% |
| C[C@@H](N)[C@H]1CC[C@H](C(=O)Nc2ccncc2)CC1 | 96.6% |
| O=C1NC(=O)/C(=C/c2ccc3c(c2)OC(F)(F)O3)S1 | 90% |
| O=C(O)/C=C/c1cc(Br)c(Br)c(Br)c1Br | 56.3% |
| Nc1nc(Nc2ccc(S(N)(=O)=O)cc2)nn1C(=S)Nc1c(F)cccc1F | 11.3% |

Set 3 — effect on: cell-free assay; technique: competition with immobilised ligand; concentration: 1 µM
SMILES: O=C(NC[C@@H]1[C@H]2CN(C(=O)OCc3cc(C(F)(F)F)cc(C(F)(F)F)c3)C[C@@H]12)c1ccc2[nH]nnc2c1
| target | remaining binding [%] |
| --- | --- |
| TGFBR2 (Homo sapiens, UniProt P37173) | 100 |
| GRK4 (Homo sapiens, UniProt P32298) | 100 |
| Ribosomal protein S6 kinase alpha-1, C-terminal kinase domain (RPS6KA1, Homo sapiens, UniProt Q15418) | 83 |
| OXSR1 (Homo sapiens, UniProt O95747) | 85 |
| Myosin-IIIa (MYO3A, Homo sapiens, UniProt Q8NEV4) | 98 |
| MAPK7 (Homo sapiens, UniProt Q13164) | 100 |
| ROS1 (Homo sapiens, UniProt P08922) | 100 |
| RET (Homo sapiens, UniProt P07949, V804L) | 100 |
| PIK3CG (Homo sapiens, UniProt P48736) | 76 |
| NIM1K (Homo sapiens, UniProt Q8IY84) | 100 |
| Non-receptor tyrosine-protein kinase TYK2, JH2 (TYK2, Homo sapiens, UniProt P29597) | 100 |
| MAP3K2 (Homo sapiens, UniProt Q9Y2U5) | 80 |
| MST1R (Homo sapiens, UniProt Q04912) | 100 |
| CDK8 (Homo sapiens, UniProt P49336) | 100 |

Set 4 — technique: KINOMEscan; concentration: 10 µM; reference: DMSO control; direction: lower = stronger binding
SMILES: COc1cc(C(=O)N2CCC(N3CCN(C)CC3)CC2)ccc1Nc1ncc2c(n1)N(C)c1ccccc1C(=O)N2C
| target | binding [%] |
| --- | --- |
| PAK7 | 96 |
| ERK8 | 100 |
| ASK1 | 100 |
| EPHA5 | 95 |
| CDK8 | 100 |
| SRPK1 | 94 |
| PIK3C2G | 100 |
| DRAK2 | 93 |
| CDK11 | 100 |

Excerpt of the above (set 3):
| target | remaining binding [%] |
| --- | --- |
| GRK4 (Homo sapiens, UniProt P32298) | 100 |
| Ribosomal protein S6 kinase alpha-1, C-terminal kinase domain (RPS6KA1, Homo sapiens, UniProt Q15418) | 83 |
| OXSR1 (Homo sapiens, UniProt O95747) | 85 |
| Myosin-IIIa (MYO3A, Homo sapiens, UniProt Q8NEV4) | 98 |
| MAPK7 (Homo sapiens, UniProt Q13164) | 100 |
| ROS1 (Homo sapiens, UniProt P08922) | 100 |
| RET (Homo sapiens, UniProt P07949, V804L) | 100 |
| PIK3CG (Homo sapiens, UniProt P48736) | 76 |
| NIM1K (Homo sapiens, UniProt Q8IY84) | 100 |
